Published values collected from several papers.
Protocols differ between the studies behind these lines. Numbers after ± are the reported error.
Chymotrypsinogen A: Chymotrypsinogen A (Bos taurus, UniProt P00766)
Sequence of UniProt P03303 (whole entry, looked up): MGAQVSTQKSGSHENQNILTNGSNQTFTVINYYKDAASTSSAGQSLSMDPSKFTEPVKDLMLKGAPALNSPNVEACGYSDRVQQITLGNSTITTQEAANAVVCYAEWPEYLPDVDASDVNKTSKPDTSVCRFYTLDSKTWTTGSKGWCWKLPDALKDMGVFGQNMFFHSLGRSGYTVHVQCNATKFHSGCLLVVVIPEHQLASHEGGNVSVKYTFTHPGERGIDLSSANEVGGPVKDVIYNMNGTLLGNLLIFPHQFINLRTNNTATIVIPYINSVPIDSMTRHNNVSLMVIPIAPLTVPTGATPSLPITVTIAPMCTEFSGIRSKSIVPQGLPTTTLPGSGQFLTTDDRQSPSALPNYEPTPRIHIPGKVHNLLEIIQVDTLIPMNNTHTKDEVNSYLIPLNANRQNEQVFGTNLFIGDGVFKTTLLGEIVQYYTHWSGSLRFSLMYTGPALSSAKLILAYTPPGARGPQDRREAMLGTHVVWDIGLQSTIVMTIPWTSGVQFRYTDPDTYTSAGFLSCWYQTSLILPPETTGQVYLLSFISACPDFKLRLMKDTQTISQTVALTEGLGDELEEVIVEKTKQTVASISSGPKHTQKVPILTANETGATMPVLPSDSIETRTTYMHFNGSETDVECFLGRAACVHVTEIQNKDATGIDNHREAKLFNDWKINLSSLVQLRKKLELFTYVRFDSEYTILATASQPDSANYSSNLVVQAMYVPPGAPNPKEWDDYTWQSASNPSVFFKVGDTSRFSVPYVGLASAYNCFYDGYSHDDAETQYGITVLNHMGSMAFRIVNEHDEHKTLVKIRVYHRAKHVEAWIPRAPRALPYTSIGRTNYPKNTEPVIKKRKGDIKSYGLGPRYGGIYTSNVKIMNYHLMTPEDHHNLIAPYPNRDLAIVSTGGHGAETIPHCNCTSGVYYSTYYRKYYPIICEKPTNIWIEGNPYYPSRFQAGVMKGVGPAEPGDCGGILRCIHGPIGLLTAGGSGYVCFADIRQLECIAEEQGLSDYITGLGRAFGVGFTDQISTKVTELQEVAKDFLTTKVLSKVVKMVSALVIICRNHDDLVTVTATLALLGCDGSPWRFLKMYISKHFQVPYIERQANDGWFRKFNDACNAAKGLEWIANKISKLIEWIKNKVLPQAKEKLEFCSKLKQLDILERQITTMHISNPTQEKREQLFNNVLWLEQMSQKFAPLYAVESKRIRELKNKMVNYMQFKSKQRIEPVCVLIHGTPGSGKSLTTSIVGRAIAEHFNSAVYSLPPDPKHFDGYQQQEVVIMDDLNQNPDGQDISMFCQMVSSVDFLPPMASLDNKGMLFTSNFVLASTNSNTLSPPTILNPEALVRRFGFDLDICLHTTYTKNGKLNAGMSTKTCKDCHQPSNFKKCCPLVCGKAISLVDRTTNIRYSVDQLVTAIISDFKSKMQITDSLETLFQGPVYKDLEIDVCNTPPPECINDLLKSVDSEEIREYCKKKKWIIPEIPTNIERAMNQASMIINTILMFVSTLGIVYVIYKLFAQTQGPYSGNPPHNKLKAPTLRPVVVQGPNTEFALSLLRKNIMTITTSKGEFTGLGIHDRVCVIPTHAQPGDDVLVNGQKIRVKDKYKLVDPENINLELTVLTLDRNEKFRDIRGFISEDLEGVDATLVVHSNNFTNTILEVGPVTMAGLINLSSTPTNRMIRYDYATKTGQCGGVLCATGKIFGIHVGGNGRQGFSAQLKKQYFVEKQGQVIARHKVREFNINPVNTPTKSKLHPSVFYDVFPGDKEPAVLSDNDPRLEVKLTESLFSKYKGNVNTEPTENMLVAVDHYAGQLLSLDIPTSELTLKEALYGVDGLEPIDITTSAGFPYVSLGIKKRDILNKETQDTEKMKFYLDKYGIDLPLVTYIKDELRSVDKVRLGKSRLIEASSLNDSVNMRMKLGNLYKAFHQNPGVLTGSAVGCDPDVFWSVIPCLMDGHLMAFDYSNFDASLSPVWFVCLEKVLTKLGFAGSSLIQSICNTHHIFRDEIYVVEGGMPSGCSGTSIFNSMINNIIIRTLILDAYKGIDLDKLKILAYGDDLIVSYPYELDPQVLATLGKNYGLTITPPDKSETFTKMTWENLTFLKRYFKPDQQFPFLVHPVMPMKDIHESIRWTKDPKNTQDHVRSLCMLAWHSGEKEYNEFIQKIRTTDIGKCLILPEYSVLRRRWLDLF
Sequence of UniProt P97612 (whole entry, looked up): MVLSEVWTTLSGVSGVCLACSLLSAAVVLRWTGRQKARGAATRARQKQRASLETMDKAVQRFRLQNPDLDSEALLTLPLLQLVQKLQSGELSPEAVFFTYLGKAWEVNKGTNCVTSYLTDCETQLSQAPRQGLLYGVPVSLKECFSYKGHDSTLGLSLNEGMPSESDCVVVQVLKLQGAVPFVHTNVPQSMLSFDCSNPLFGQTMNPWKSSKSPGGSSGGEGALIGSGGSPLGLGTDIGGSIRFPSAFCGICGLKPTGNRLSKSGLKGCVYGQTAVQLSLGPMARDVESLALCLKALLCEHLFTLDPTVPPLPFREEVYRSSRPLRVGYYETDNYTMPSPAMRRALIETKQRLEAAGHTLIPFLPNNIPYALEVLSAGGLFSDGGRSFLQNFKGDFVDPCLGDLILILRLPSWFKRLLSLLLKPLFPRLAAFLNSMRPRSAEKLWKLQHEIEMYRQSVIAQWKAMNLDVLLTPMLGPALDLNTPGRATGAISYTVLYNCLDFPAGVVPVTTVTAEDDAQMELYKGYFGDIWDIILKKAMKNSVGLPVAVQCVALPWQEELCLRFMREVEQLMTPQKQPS
Sequence of UniProt P22735 (whole entry, looked up): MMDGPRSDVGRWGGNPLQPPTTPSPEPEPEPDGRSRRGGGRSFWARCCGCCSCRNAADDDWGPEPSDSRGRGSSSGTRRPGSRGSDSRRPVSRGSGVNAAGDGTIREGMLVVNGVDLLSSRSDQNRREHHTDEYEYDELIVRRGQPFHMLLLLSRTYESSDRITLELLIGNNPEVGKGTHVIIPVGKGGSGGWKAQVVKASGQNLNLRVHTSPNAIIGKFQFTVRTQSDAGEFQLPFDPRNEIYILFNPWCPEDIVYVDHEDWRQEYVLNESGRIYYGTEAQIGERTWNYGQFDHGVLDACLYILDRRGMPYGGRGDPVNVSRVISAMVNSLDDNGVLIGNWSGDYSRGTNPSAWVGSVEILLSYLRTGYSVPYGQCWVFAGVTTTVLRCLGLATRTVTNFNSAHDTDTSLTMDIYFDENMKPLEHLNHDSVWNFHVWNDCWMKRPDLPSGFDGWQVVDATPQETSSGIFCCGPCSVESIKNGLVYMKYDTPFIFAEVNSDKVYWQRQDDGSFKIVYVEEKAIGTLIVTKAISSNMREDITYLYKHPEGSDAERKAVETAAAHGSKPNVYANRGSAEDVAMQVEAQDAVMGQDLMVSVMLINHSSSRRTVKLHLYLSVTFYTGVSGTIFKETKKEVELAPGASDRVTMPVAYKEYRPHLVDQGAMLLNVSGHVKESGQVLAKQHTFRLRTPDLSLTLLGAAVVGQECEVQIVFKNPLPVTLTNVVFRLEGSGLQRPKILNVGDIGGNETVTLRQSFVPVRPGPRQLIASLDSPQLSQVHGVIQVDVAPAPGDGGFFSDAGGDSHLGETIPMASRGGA
Sequence of UniProt Q04759 (whole entry, looked up): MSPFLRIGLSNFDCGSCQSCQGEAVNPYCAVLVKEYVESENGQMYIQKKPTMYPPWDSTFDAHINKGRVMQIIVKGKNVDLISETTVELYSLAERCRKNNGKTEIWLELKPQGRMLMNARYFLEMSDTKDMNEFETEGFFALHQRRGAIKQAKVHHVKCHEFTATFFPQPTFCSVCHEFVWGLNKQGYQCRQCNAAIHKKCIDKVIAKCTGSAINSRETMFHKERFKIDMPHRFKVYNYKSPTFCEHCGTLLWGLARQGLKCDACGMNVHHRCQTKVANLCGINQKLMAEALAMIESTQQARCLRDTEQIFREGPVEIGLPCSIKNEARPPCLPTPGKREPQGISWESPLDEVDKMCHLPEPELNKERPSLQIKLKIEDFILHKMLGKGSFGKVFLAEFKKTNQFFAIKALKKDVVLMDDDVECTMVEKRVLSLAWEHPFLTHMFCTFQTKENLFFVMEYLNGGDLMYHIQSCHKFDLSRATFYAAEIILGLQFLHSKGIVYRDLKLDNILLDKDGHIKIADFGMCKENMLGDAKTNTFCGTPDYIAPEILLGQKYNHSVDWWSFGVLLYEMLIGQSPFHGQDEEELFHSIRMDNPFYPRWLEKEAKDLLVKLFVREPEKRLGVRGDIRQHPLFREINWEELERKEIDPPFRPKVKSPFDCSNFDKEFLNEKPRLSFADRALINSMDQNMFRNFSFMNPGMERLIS
Sequence of UniProt P30550 (whole entry, looked up): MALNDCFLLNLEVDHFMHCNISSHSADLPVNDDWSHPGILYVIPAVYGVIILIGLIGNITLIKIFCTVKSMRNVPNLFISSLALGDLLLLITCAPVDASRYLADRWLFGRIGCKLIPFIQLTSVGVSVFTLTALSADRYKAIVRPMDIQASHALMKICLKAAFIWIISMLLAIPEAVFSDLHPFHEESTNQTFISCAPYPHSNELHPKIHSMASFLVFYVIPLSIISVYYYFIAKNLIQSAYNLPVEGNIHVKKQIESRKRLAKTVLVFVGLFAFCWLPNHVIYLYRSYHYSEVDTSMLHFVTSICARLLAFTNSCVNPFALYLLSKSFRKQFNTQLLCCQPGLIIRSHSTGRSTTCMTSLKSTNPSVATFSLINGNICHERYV
Sequence of UniProt P21729 (whole entry, looked up): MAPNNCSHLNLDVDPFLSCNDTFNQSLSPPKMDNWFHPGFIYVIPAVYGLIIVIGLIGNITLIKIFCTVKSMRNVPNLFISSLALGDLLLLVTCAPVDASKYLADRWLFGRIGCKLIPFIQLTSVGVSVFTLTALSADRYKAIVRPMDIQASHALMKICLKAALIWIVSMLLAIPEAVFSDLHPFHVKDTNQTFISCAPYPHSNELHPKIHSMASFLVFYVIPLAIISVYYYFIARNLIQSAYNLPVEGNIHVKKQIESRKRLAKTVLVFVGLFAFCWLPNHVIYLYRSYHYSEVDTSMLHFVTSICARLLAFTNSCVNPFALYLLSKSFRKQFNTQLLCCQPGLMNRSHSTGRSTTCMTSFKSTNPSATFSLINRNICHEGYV

| Structure (SMILES) | target or system | assay | system | setting | quantity | result |
| --- | --- | --- | --- | --- | --- | --- |
| Nc1nc2nc3nc(N)sc3cc2s1 | Chymotrypsinogen A | enzyme activity, inhibitor |  |  | IC50 | 29 µM |
| CCCNC(=O)[C@H](CC(C)C)NC(=O)[C@H](Cc1c[nH]cn1)NC(=O)CNC(=O)[C@@H](NC(=O)[C@H](C)NC(=O)[C@H](Cc1c[nH]c2ccccc12)NC(=O)[C@H](CCC(N)=O)NC(=O)[C@@H](Cc1ccccc1)NC(=O)CCCCCNC(=O)CN1CCN(CC(=O)O)CCN(CC(=O)O)CCN(CC(=O)O)CC1)C(C)C [indium-111 labelled] | Gastrin-releasing peptide receptor (Mus musculus, UniProt P21729) |  | CF-1 mice, carcass | intravenous, dose not given, 1 h, with: bombesin 100 µg (blocking) | tissue uptake | 0.2 ± 0.02 %ID/g |
| C=CCn1c(C)cc(C(=O)COn2nnc3ccc(S(=O)(=O)N(C)C)cc32)c1C | Genome polyprotein, 3C protease (rhinovirus B14, UniProt P03303) | 3C protease activity, SAMDI-MS | human rhinovirus |  | IC50 | > 100 µM |
| CCCC[C@H](NC(=O)[C@H](CC(C)C)NC(=O)[C@H](Cc1c[nH]cn1)NC(=O)CNC(=O)[C@@H](NC(=O)[C@H](C)NC(=O)[C@H](Cc1c[nH]c2ccccc12)NC(=O)[C@H](CCC(N)=O)NC(=O)[C@H](CC(N)=O)NC(=O)CNC(=O)[C@H](Cc1ccc(O)cc1)NC(=O)[C@H](CCCNC(=N)N)NC(=O)[C@H](CCC(N)=O)NC(=O)[C@@H]1CCC(=O)N1)C(C)C)C(N)=O | GRPR (Homo sapiens, UniProt P30550) | ligand displacement in cells, radioligand |  |  | IC50 | 0.0004 µM |
| O=C(NCCCCCCCCn1ccc2ccccc21)Oc1ccccc1 | Faah (Rattus norvegicus, UniProt P97612) |  | rat brain homogenate | 60 min, 37 °C | IC50 | 0.1 µM |
| O=C(O[C@@H]1Cc2c(O)cc(O)cc2O[C@@H]1c1cc(O)c(O)c(O)c1)c1cc(O)c(O)c(O)c1 | mRNA cap guanine-N(7) methyltransferase, with RAM (RNMT, Homo sapiens, UniProt O43148) | N7-methyltransferase activity, inhibitor, Py-FLINT |  | RNMT-RAM complex, with: SAM 20 µM | IC50 | 3.61 ± 0.7 µM |
| CC(=O)N[C@H]1CSC(=O)[C@H](Cc2ccccc2)NC(=O)[C@H](CC(C)C)NC(=O)[C@H](CO)NC(=O)[C@H](CO)NC1=O | Accessory gene regulator protein C (Staphylococcus aureus, UniProt Q309Z2) |  |  |  | IC50 | 0.0117 µM |
| COC(=O)C=CCCC(NC(=O)c1ccncc1C(=O)O)C(=O)NC(C(=O)N1CC(=O)CC1C(=O)NC(C(=O)NC(C(N)=O)C1CCCCC1)C1CCCCC1)C(C)(C)C (stereo not shown) | Protein-glutamine gamma-glutamyltransferase K (Homo sapiens, UniProt P22735) | enzyme activity, inhibitor |  |  | IC50 | 11 µM |
| COc1ccc(N=Nc2cccc(NC(=O)CCCCCCC(=O)NO)c2)cc1 | HDAC2 (Homo sapiens, UniProt Q92769) | enzyme activity, inhibitor |  | cis isomer, irradiated | IC50 | 0.098 ± 0.014 µM |
| COc1ccc(C[C@H]2C(=O)N[C@@H](CC(N)=O)C(=O)N[C@@H](CC(=O)O)C(=O)N[C@@H](CO)C(=O)NCC(=O)N[C@@H](Cc3c[nH]c4ccccc34)C(=O)N(C)[C@@H](Cc3ccc(O)cc3)C(=O)N[C@@H](CC(N)=O)C(=O)N[C@@H]([C@@H](C)O)C(=O)N(C)[C@@H](Cc3ccccc3)C(=O)N[C@H](C(N)=O)CSCC(=O)N[C@@H](Cc3ccc(O)cc3)C(=O)N2C)cc1 | 2,3-bisphosphoglycerate-independent phosphoglycerate mutase (gpmI, Staphylococcus aureus, UniProt Q6GIL5) | enzyme activity |  |  | AC50 | 0.174 µM |
| NS(=O)(=O)c1ccc(NC(=O)c2ccccc2SSc2ccccc2C(=O)Nc2ccc(S(N)(=O)=O)cc2)cc1 | Gag-Pol polyprotein, integrase core 50-213 (gag-pol, Human immunodeficiency virus type 1 group M subtype B, UniProt P04585) | disintegration activity |  | integrase catalytic core, 10 mM Mn2+ | IC50 | 0.191 µM |
| O=C(C[P+]([Au-][Cl])(c1ccccc1)c1ccccc1)[O][Ti+2][O]C(=O)C[P+]([Au-][Cl])(c1ccccc1)c1ccccc1.c1cc[cH-]c1.c1cc[cH-]c1 | PRKCQ (Homo sapiens, UniProt Q04759) | enzyme activity, inhibitor, radiometric |  |  | IC50 | 11.6 µM |
| CC(=O)N[C@@H](CCCNC(=N)N)C(=O)N[C@@H](CO)C(=O)N[C@@H](CCC(=O)O)C(=O)N[C@@H]1C(=O)N[C@@H](CC(C)C)C(=O)N[C@H]2CCCCNC(=O)CC[C@@H](C(=O)N[C@@H](Cc3ccccc3)C(=O)O)NC(=O)[C@@H]3CCC(=O)OC[C@H](NC(=O)[C@@H]4CCCN4C(=O)[C@H](Cc4ccc(O)cc4)NC2=O)C(=O)N[C@@H](CC(=O)O[C@@H]1C)C(=O)N[C@@H](Cc1c[nH]c2ccccc12)C(=O)N3 | Chymotrypsinogen A | enzyme activity, inhibitor, fluorescence |  |  | IC50 | 7.3 µM |
| CN[C@](C)(C[18F])C(=O)O | DU-145 tumour model |  | host not given, kidney | 30 min, tumour-bearing | tracer uptake | 13 %ID/g |
| CC(C)[C@H](NC(=O)c1ccc(CCc2nc3c(c(=O)[nH]2)CCC3)cc1)C(=O)NC1CNC1 | MMP14 (Homo sapiens, UniProt P50281) | enzyme activity, inhibitor |  |  | IC50 | > 5 µM |
| CN1C(=O)[C@H](Cc2ccc(O)cc2)NC(=O)CNC(=O)[C@H](Cc2ccc(O)cc2)NC(=O)[C@H](CCC(=O)O)NC(=O)[C@H](Cc2ccc(O)cc2)N(C)C(=O)[C@H](Cc2ccc(O)cc2)N(C)C(=O)[C@H](CCC(N)=O)NC(=O)[C@H](Cc2c[nH]c3ccccc23)NC(=O)[C@H](Cc2ccc(O)cc2)NC(=O)[C@@H](Cc2ccc(O)cc2)NC(=O)CSC[C@@H](C(N)=O)NC(=O)[C@H](CCCCN)NC(=O)[C@@H]1Cc1ccc(O)cc1 | ipgm-1 (Caenorhabditis elegans, UniProt G5EFZ1) | enzyme activity |  |  | AC50 | 13.5 µM |
| COc1ccc(CC[C@H]2OC(=O)[C@@H]3CCCCN3C(=O)C(=O)C(C)(C)COC(=O)/C=C\CCN(C)C(=O)[C@H](CC(C)C)N(C)C(=O)[C@H]3CCCN3C(=O)[C@H](Cc3ccccc3)N(C)C(=O)[C@H](c3ccccc3)NC(=O)CCC(=O)Nc3cccc2c3)cc1OC | FKBP1A/SLC29A1 (Homo sapiens, UniProt P62942+Q99808) | thymidine uptake, inhibitor | PK-15 expressing hENT1 | 30 min, with: [3H]-thymidine | IC50 | 0.0145 µM |
| CC(=O)N[C@@H](CCCNC(=N)N)C(=O)N[C@@H](Cc1ccc(O)cc1)C(=O)N[C@@H](CCCNC(=N)NC(=O)NCCCCN)C(=O)N[C@@H](CC(C)C)C(=O)N[C@H](CCCNC(=N)N)C(=O)N[C@@H](Cc1ccc(O)cc1)C(N)=O | NPY5R (Homo sapiens, UniProt Q15761) | ligand displacement, radioligand |  |  | Ki | > 5 µM |
| C[N+]1(C)CCN(c2nnnc3c2sc2nc(N4CCOCC4)c4c(c23)CCCC4)CC1 | Beta-glucuronidase (uidA, Escherichia coli, UniProt P05804) | enzyme activity, inhibitor, absorbance |  | pH 7.5 | IC50 | 9.6 µM |

Excerpt of the above:
| Structure (SMILES) | target or system | assay | system | setting | quantity | result |
| --- | --- | --- | --- | --- | --- | --- |
| CC(=O)N[C@@H](CCCNC(=N)N)C(=O)N[C@@H](CO)C(=O)N[C@@H](CCC(=O)O)C(=O)N[C@@H]1C(=O)N[C@@H](CC(C)C)C(=O)N[C@H]2CCCCNC(=O)CC[C@@H](C(=O)N[C@@H](Cc3ccccc3)C(=O)O)NC(=O)[C@@H]3CCC(=O)OC[C@H](NC(=O)[C@@H]4CCCN4C(=O)[C@H](Cc4ccc(O)cc4)NC2=O)C(=O)N[C@@H](CC(=O)O[C@@H]1C)C(=O)N[C@@H](Cc1c[nH]c2ccccc12)C(=O)N3 | Chymotrypsinogen A | enzyme activity, inhibitor, fluorescence |  |  | IC50 | 7.3 µM |
| CN[C@](C)(C[18F])C(=O)O | DU-145 tumour model |  | host not given, kidney | 30 min, tumour-bearing | tracer uptake | 13 %ID/g |
